Measured values of several laboratories.
Numbered parts are unrelated; each lists some results of a single study.

Set 1 — technique: universal PBM; form: double-stranded DNA, one strand shown; sample: in vitro; tested at: 600 nM; direction: higher = stronger binding
Target: Sal-like protein 4, full length isoform A (SALL4, Homo sapiens, UniProt Q9UJQ4, residues 1-1053)
UniProt Q9UJQ4, sequence (whole entry, looked up): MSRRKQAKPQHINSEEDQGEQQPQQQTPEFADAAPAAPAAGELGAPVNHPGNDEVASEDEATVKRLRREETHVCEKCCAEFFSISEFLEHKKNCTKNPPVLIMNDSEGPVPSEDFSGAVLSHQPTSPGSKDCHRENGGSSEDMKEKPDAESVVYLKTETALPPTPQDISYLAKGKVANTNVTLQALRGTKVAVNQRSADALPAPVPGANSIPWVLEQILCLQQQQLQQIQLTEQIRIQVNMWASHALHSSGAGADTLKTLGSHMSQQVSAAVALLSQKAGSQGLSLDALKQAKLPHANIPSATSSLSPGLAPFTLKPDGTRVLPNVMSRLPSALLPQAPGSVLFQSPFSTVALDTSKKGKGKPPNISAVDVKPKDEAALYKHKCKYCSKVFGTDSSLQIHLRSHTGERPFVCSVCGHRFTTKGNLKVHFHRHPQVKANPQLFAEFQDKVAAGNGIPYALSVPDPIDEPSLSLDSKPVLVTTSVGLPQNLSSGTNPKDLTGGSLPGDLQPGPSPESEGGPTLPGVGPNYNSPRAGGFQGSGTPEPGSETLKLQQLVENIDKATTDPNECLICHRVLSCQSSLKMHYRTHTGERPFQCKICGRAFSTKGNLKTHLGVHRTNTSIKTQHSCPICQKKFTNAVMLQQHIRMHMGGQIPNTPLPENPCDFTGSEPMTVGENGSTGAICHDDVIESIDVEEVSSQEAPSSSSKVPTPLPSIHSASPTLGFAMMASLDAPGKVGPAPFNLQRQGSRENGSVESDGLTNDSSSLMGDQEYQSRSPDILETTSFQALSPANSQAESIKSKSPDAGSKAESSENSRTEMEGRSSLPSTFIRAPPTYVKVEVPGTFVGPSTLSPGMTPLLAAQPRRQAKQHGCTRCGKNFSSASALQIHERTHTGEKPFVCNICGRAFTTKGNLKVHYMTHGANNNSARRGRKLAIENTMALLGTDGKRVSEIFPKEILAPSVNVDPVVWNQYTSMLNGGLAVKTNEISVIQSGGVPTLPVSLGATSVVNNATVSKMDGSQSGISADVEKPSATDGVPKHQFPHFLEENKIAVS
Setting: 8-mer, flanks averaged, mean of replicates
Oligonucleotide | E-score
GAGCCACC | -0.273
ATAATCCC | 0.131
GATGAACC | -0.189
CAAAGGGC | -0.308
CGCAGCTA | -0.284
ACGAGCGA | 0.0336
CACCAGTA | 0.0311
CGGAAGCA | -0.0962

Set 2 — technique: aptamer microarray, sandwich; form: DNA with 2'F-ANA; sample: in vitro; tested at: 200 nM; added: Cy3 exosite-II aptamer, 400 nM; direction: higher = stronger binding; oligonucleotide: GGTTGGTGTGGTTGG
Target: Prothrombin, mature alpha-thrombin (F2, Homo sapiens, UniProt P00734)
Setting: whole 15-mer aptamer, many near background
Modification | mean fluorescence intensity [a.u.]
2'F-ANA at 4 5 8 9 14 15 | 45.7
2'F-ANA at 1 3 8 11 13 14 | 98
2'F-ANA at 1 3 5 7 9 10 14 | 44.2
2'F-ANA at 1 2 3 6 9 13 15 | 141
2'F-ANA at 1 6 7 10 12 14 15 | 49.3
2'F-ANA at 3 4 6 9 11 15 | 420
2'F-ANA at 1 2 3 6 7 9 10 11 13 14 | 55.3
2'F-ANA at 1 3 4 5 6 12 13 15 | 76.5

Further values, each from its own experiment
SMILES | tested on | test | system | setting | scale | endpoint | result
CC(C)n1cnc(-c2ccc(F)cc2)c1-c1ncc(C(=O)Nc2ccc(N3CCN(C)CC3)cc2)[nH]1 | – | phase 2a trial | idiopathic pulmonary fibrosis patients | 60 mg once daily, grade 2 emergent event | – | patients with eczema | 0%
Nc1ccc(S(=O)(=O)Nc2ncccn2)cc1 | mouse MPNST tumor cells | high-content nuclear imaging, measured: cell number | – | 10 µM, 12 h, mean of 2 replicates | relative to: plate mean, higher = more cells | nuclei count | 0.433 z-score

Excerpt of the above (set 1):
Oligonucleotide | E-score
CGCAGCTA | -0.284
ATAATCCC | 0.131
